Results pooled from the literature.
Parts stem from different laboratories: compare values within a part only.

Study 1
Target: Hepatocyte nuclear factor 3-alpha (Foxa1, Mus musculus, UniProt P35582, residues 1-468, full length assumed)
Method: EMSA with sequencing
Form: double-stranded DNA, one strand shown
Medium: in vitro
Tested at: 10 and 20 nM
Setting: whole designed probe, mean of two concentrations, ends assumed
Relative to: negative control set to 0
Reading: higher = stronger binding
Shared flanks, not repeated: GTGAGCGGTGCCCATTGATGGGGAAC … TTTCACTGGGATCGTGGGGAC
Construct (chain): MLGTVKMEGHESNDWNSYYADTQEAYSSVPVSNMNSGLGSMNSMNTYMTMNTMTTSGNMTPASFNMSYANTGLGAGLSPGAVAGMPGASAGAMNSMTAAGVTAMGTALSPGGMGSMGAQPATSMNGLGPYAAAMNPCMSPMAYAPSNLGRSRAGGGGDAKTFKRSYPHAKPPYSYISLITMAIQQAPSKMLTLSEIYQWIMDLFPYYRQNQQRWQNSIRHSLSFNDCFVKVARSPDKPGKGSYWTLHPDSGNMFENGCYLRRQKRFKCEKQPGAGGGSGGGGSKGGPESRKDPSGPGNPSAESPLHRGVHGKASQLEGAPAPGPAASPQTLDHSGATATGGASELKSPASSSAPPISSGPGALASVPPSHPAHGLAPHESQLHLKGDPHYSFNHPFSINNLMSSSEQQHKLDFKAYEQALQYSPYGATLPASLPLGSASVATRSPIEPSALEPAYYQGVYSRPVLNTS
Oligonucleotide	normalised bound fraction [ratio]
AAATAAGGCGCGCGAGAGAGGCCAACACGTCGCGGAGGGAGATGTTGTTATTTTTTGCTGTTGTGCGTCCCTGACGTCACATCCACCTGCTGGGTAAACAACCGGGCTCCCAGAAAAAAAAAATCGCAATTGCCAAAGAATGGGGGGGGGGGTTGGGGGGAGGGATCCAGGGAGGGGGAAGTGAGGGGCGTCC	0.375
AGGCACAAGGTATGAATCACTAAGAATCTAGCAGCAGCTCTAGAAGCCTCCAAAGATAATTGCACTTCCCCAACAGGGGGGGGTGGAGTGGACGTAAATATGAAAGAACAGTGGATGGCCTAAATCAGTATGTGTCACTCTTTGTAAAGAGCCACAAGTGTTTGACTAGGGAAAAAGGAAAAGAGGCGAGAGT	0.0486
ATCTTCCCCCTCTTCCTTGCCCCACCAGCTCACCTTCCCGGGTTGTTTACTTTGAGCAAAGTAAACAAAGCCGGCATTCGTTAACCCTCTTCTGGCGCAAACTGCCAAAGTAAACAGATCTAACATGGTCCTTTGGCGACGCCAGGCTCCGGGAGAGCAAAGCACCGTGTCAGGGCCATGATCCGGGGTGGCC	0.569
TAAACAAAGCTGGTCGCCCAATGAAGAGGCGGCGGGGGCGGGCGCTGGGCCGGGGAGGCCGGGGGCGGAGCCGGGGGCGGGGCGACCGGGCGGAGATTACAGACCGGCACATGGCGCTTCCGGTTGACGTTGCTGACAGCTAGTGAGGCTTTAGCCCGCTTCGAGCGCCCGGGGGCGGTAAGGCGCGATCATA	0.474
TCTCCCCGTGTGGCATCAAGGCGGGCTCCCTATAGGAGCTGGTGTGGACGTCCGGGCGTGGGGTTAGGGCGGATGCGGGGATCGCGGGGCGGGAGATGACATTGTGCTCTCACCAGGCGGATCGCCCCGACCCTCACTCCTGGCGTCTGAGTCTCTGGCGTAGCCCATGCTGAGTGGGCGGCTGGTCCTGGGT	-0.0798
CTAGTTCCAGTCTTAGCATGACAATTTCTTCCTGCAACGTACTATTTTCATGCAAGAGGTCTTTTTCTTTCTTATAACTAAGAGAAAGCTAAGTAATCTAAGGGAACTTTTAGTTAGCACTCAATAGATTGATATATCATGATTTCTTCTGAAATTAAAAAATAACATCTGTATTTGTATAATGAAAGAATCC	0.163
CTGTAGCCTTTGCAAATAACCTTTTTGAACAAAAACGGCAATGGCTCATTCCAAACCCGATCAAAGAGGTATGCATGACTCACAGCCACTAAATAAACATTGATGCCTGATGGCAGTAATATGGCTATTTATATTCAGAGCCTGATTTAACCAGTGGCATTCCTGTAATAAGATAATAAGCATGAGCTGTTTA	0.535
TTCATCTTTCTGACATGGTTTTCCCATGTATGGAGATCTTGGGGCCCACCTGAAGGAGTTTTTTGAAGTGTTGACTGTGACACTATGGGCTTCATGTTTACTTTGGGATCTGGTGGGAAGTTCAAGTGCTATTAATTTTTCCTTGGTCTGTTTTATGCTTTGTAATGGCTTTCTGTGTGTTTTTTGGGAGTTA	0.426

Study 2
Target: Interferon regulatory factor 5, full length, phosphomimetic (IRF5, Homo sapiens, UniProt Q13568-2, residues 1-514, S451D/S453D/S456D/S462D)
Method: protein-binding microarray
Form: double-stranded DNA, one strand shown
Medium: in vitro
Tested at: 940 nM top
Setting: 60-bp whole probe
Added: salmon DNA 0.4 mg/ml
Relative to: random background probes
Reading: higher = stronger binding
Shared flanks, not repeated: GCCTAGCAC … GTCTTGATTCGCTTGACGCTGCTG
Oligonucleotide	fitted relative affinity
GCAAATATATCAGTGAATTTGTGCTAG	-0.0531 z-score
TTATGTTTCGGGTATCGGTTAGTGCTA	6.4 z-score
GACGGGCTGGACACTGGGGACGTGCTA	-0.765 z-score
TTAGGTATCCTAATGCTTTAGTGCTAG	-0.0998 z-score
TCTACTTCTCTTTTTGCTTTGTGCTAG	1.79 z-score
TCATCTCTGGACTGTGTGACTGTGCTA	-0.174 z-score
ATAGGTATCGGTCTCGGTTAGTGCTAG	8.9 z-score
TTAGATTTAAGTATCGATTAGTGCTAG	5.56 z-score

Study 3
Target: Hepatocyte nuclear factor 3-beta, forkhead domain (FOXA2, Homo sapiens, UniProt Q9Y261, residues 142-269)
Method: protein-binding microarray
Form: hairpin DNA
Medium: in vitro
Tested at: not given
Setting: whole hairpin DNA, median over replicate spots
Relative to: not given
Reading: higher = stronger binding
Residues (chain): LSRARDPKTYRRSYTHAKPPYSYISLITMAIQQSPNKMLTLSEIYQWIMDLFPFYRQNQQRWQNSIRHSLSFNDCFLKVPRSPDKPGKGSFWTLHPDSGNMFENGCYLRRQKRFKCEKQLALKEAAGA
Oligonucleotide	median fluorescence
GAGGCCAGGTAAACAACGCCTCCTGGCGTTGTTTACCTGGCCTCACACTC (5mC at 37)	4000 a.u.
GAGGCCATGTAACCAATGCCTCCTGGCATTGGTTACATGGCCTCACACTC	3230 a.u.
GAGGCCATATAAACAACGCCTCCTGGCGTTGTTTATATGGCCTCACACTC	3030 a.u.
GAGGCCATGTCGACAACGCCTCCTGGCGTTGTCGACATGGCCTCACACTC	3510 a.u.
GAGGCCCTGTAAACAACGCCTCCTGGCGTTGTTTACAGGGCCTCACACTC	3680 a.u.
GAGGCCATGTAAACACGGCCTCCTGGCCGTGTTTACATGGCCTCACACTC (5mC at 28)	3990 a.u.
GAGGCCATGTAACCAGCGCCTCCTGGCGCTGGTTACATGGCCTCACACTC	3320 a.u.
GAGGCCATGCGAACAACGCCTCCTGGCGTTGTTCGCATGGCCTCACACTC (5mC at 10)	3360 a.u.

Single results of other studies
Compound	cell line	setting	quantity	result
CC1COc2c(N3CCN(C)CC3)c(F)cc3c(=O)c(C(=O)O)cn1c23 (stereo not shown)	A-375	100 µM, 18 h	viability	94.3%

For quick reference, copied from above (study 3):
Oligonucleotide	median fluorescence
GAGGCCCTGTAAACAACGCCTCCTGGCGTTGTTTACAGGGCCTCACACTC	3680 a.u.
GAGGCCATATAAACAACGCCTCCTGGCGTTGTTTATATGGCCTCACACTC	3030 a.u.
GAGGCCATGTAAACACGGCCTCCTGGCCGTGTTTACATGGCCTCACACTC (5mC at 28)	3990 a.u.
